# Published values pooled from the literature.
# A part holds a random share of what one study measured. Changes are numbered by the printed parent chain.

# Block 1
# Target: RNA binding protein fox-1 homolog 2, RRM domain, GST-SBP tag (RBFOX2, Homo sapiens, UniProt O43251-10, residues 100-194)
# Method: RNA Bind-n-Seq
# Form: RNA
# Medium: in vitro
# Concentration: 365 nM
# Notes: natural RNA segment, single round, ends assumed
# Reference: no-protein control
# Reading: higher = stronger binding
# Shared flanks, not repeated: GGGAGUUCUACAGUCCGACGAUC … UGGAAUUCUCGGGUGCCAA
Sequence,RBNS enrichment (R)
UGGCCUACAGCUUCCUCUGCAGGGUCUAAACAGGGAAGGCACGUGUGGAGGAGUGGUCCCAGUGACAUCCAGGCACCAUUCAGCACAACACUGGGAAGUGAUUCUUCCCU,2.72
AGACUGGCUCAAAAAAGAAAGAAGCAACGAAAACAAAAUGCACAGCCUGAAUGGACGUAGCACUGUCAUGUGGCAUUUGGAAAAUCUUUAAUUAUCCUAAUGUUAUUUCA,1.16
UGGUGUCUCAUGUGUACUUCCUGUCUGUCCCCUUUGAUGGCUGUGCGGUCAUCCUAUCGGCGUGGCCUAGGUCCCUUGUGUGUGUAGCACAUCCCUGCUUUUGACUGAAC,0.533
UUCUACUUAGAAAAACCUAUUGCAGUUAGUUUAUCUUGUAGUAUUCAUCUUUGUAUUCUGAAGAUAAGGUUUGAAUUAAAUUGAUACACACAGAGGGGAACCGAUUUUUU,0.755
UGAGUGAGUGUGCAUGUGUGGGAAUUCAUCAUAACCCUUGAAGCUAGCAAGCGACCGCUGUUGGCCGAGCUUCACUCAUGACUGCAGCGUGCAUGUAUCUCUUCACCAUG,11.3
UAUACUUACAUGUAUGUUCUUAAGAGAAAAACUAGGUACCCAUAGUGCACGUUUGAUUAGGAGUGUGAAUAGAGCUGCCGUGGCUCGAGUUCUUUUUAUCUUUUGCUUUU,1.7
AGCAGUUUGCCUGGUCAGUCAGCUUUUGGGGGUCCAUCAAAGGAGGUUGCUGACCUGACCGUGAGUGCUUCAGUAUCUGGUUUGUGUCAGAACCAGACGCCAACUUUGUA,0.465
GUGAGCAAGUCCCCCAAGCCCUGACCAGCCUCCUCCCAUGACUGGUGACUGUUUAACAAGCUGUGCAUCCCCCACAAAAAUAGGAGUGCCCUAUUUGUAGUCUCCACCUC,0.411

# Block 2
# Target: CCNE1, cyclin fold, Cln2 fusion (human)
# Method: yeast growth competition, sequencing
# Medium: yeast
# Notes: strong parent motif
# Reference: not given
# Reading: higher = stronger binding
# Parent: CDKN1B docking peptide (human); PSACRNLFGPVDH; partner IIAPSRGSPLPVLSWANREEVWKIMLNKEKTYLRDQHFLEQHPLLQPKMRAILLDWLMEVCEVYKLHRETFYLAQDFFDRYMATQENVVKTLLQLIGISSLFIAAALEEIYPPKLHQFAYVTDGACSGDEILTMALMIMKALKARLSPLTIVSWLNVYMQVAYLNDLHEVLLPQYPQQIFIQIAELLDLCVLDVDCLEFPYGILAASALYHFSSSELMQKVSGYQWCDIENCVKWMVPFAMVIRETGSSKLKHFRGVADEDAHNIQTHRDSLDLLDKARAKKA
Variant,normalised enrichment score
PSACRNLFGPVWH [D12W],2.35
PSACRNLFGLVDH [P10L],2.48
PSACRNLFKPVDH [G9K],1.73
PSACRNLFGMVDH [P10M],1.63
PSACRWLFGPVDH [N6W],1.45
PSACRNLFGGVDH [P10G],3.05
SSACRNLFGPVDH [P1S],3.02
PSACRNLFGPVAH [D12A],3.17
PSAKRNLFGPVDH [C4K],2.89
PSACRNLTGPVDH [F8T],0.192
PSACRNLFGPVDI [H13I],3.11
PSNCRNLFGPVDH [A3N],0.272
PSACRNLFGPADH [V11A],2.67
PSMCRNLFGPVDH [A3M],1.32
PCACRNLFGPVDH [S2C],1.53
PSATRNLFGPVDH [C4T],0.341
PSACRNCFGPVDH [L7C],-0.765
PSACRNSFGPVDH [L7S],0.322
HSACRNLFGPVDH [P1H],3.82
PSACRNLFGRVDH [P10R],3.5
PSACRNLVGPVDH [F8V],-0.291
PSACRNLIGPVDH [F8I],0.508
PSACRNLFAPVDH [G9A],1.7
PSAHRNLFGPVDH [C4H],0.141
PSACFNLFGPVDH [R5F],0.652

# Block 3
# Target: Histone acetyltransferase KAT6A, winged helix 1, GST fusion (KAT6A, Homo sapiens, UniProt Q92794, residues 1-85)
# Method: protein binding microarray
# Form: double-stranded DNA, one strand shown
# Medium: in vitro
# Concentration: not given
# Notes: 8-mer, flanks averaged, mean of 2 arrays, mostly near background
# Reference: not given
# Reading: higher = stronger binding
# Residues (chain): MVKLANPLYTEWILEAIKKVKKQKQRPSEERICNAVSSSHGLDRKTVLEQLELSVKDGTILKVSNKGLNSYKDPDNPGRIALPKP
Sequence,E-score
GTCTTAGA,-0.0805
TGTCTGAA,-0.184
AACGCTAT,0.0649
GTTCGCGA,0.0461
GAAGTAAC,-0.0773
CCCACGGA,0.0784
CCCAAACC,-0.0683
TACGCGCA,0.389
AAGGCGTC,0.145
TAGTCGAA,-0.184
AGGTAGGC,-0.107
CATGTCGG,0.112
CAATTCGG,0.0372
ATTATGAG,-0.138
CTATCGTC,0.00846
CCGCGCGG,0.462
CCGATGAG,0.0472
TTGAAAAA,-0.237
AACCGTTG,0.0268
CGGTGTGA,0.0827
CCCCTAAC,0.0647
ACTGATTG,-0.308
CCATAGGC,0.132
AAGCGAAT,0.0558
ACACAGCA,-0.0874

# Block 4
# Target: Ras GTPase-activating protein-binding protein 1, C-terminal RGG region (G3BP1, Homo sapiens, UniProt Q13283)
# Sequence of UniProt Q13283 (whole entry, looked up): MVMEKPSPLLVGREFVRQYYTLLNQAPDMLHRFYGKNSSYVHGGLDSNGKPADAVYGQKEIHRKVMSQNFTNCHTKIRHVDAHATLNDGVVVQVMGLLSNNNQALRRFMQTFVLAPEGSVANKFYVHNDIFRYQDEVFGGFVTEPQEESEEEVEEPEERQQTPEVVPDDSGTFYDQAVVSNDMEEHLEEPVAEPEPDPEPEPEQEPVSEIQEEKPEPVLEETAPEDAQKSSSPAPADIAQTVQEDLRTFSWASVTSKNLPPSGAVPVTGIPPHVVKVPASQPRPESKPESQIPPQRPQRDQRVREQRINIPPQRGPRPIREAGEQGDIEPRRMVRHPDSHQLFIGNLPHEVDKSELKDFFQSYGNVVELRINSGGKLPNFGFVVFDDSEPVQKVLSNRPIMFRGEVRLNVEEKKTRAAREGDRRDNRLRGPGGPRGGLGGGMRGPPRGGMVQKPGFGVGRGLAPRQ
# Method: RNA Bind-n-Seq
# Form: RNA
# Medium: in vitro
# Concentration: 1 µM
# Notes: whole 134-nt RNA, ends assumed
# Added: 150 mM KCl
# Reference: input library
# Reading: higher = stronger binding
# Shared flanks, not repeated: GGGAGUUCUACAGUCCGACGAUC … UGGAAUUCUCGGGUGUCAAGG
Sequence,log2 enrichment
UGCGGGACAAAGAAGUGGCCAAUCGAUACUUUACCACUGUCUGUGUGAGAUUACUGCUUGAGAGCAAAGAAAAGAAGAUCAGGGAAUUCA,0.0425
UGGCCCUGGUGGCAUGCGGGGAGGAAGAGGUGGCCUCAUGCAUCGUGGUGGUCCCGGUGGAAUGUUCAGAGGUGGCCGUGGUGGAGACAG,1.54
UUCAAGGCCAUGAAGGACCUGUUUAUGCGGUGCAUGCUGUUUACCAGAGGAGGACAUCAGAUCCUGCAUUAUGUACACUGAUCGUUUCUG,-1.02
UGGCUUCCUUCUUUCUAUUCCCCGCCUGCCUUCCAUGGUAGAGGCCAGUGACUUUGAGAUUAAUGGACUGGACUUCAUGGUAAGACCCUC,0.00431
UCAAGUCCUGUGCUACACAUCGUAUGUACCGAAUCGGGAGGGAAAAAGGGUGGGAAAGUAUUAUGUUACGCCGUUCGGAUCUGCACUUCC,1.57
UAGGGUUCAGGAUAAGUUUGAGGUGCUGAAUUACACAAGCAUUCCUAUCUUUCUCCCGGAAGUCACCAUUGGAGCUCAUCAGACUGACCG,-1.06
AGUCCUGUGCUACACAUCGUAUGUACCGAAUCGGUUUUGGGGUUUUGGGUUUUGGGGAAAGUAUUAUGUUACGCCGUUCGGAUCUGCACU,-0.552
CUGUGCUACACAUCGUAUGUACCGAAUCGGUUUUUUUGGGGUUUUUUUGGGUUUUUUUGGGAAAGUAUUAUGUUACGCCGUUCGGAUCUG,-1.27
GUUAAUUCCACCAUCCCCAUCACAGCAGAAGUUUUCAAGAAGCAUGGAGUGUACAACCCCAACAAAAUCUUCGGCGUGACGACCCUGGAC,0.142

# A few entries again (block 3):
Sequence,E-score
AAGGCGTC,0.145
CCCAAACC,-0.0683
CCCACGGA,0.0784
TTGAAAAA,-0.237
GAAGTAAC,-0.0773
CCGCGCGG,0.462
AAGCGAAT,0.0558
